Measurements pooled from the literature.
± gives the spread as reported.
Target: Tyrosine-protein kinase BTK (BTK, Homo sapiens, UniProt Q06187)
UniProt Q06187, sequence (whole entry, looked up): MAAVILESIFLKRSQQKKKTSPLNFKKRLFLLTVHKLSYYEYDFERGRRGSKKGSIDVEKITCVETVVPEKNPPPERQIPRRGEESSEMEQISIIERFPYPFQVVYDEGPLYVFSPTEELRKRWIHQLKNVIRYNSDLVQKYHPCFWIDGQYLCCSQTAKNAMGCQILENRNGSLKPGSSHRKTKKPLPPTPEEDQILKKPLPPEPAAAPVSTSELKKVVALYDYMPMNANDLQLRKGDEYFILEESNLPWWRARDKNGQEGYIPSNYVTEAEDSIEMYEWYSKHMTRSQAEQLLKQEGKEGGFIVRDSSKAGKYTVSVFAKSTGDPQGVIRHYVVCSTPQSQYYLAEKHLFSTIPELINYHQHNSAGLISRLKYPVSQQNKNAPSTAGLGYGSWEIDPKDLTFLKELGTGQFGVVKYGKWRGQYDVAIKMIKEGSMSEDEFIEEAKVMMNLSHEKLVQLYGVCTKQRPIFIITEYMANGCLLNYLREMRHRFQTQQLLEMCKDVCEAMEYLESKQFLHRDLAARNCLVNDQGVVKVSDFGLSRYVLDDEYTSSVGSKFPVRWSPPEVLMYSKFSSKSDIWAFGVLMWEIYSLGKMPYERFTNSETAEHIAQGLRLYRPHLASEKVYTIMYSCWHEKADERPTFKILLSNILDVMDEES

Compound | effect on | action | method | time | added | quantity | value
CN(CC#CC(=O)N1CCC(n2c(=O)n(-c3ccc(Oc4ccccc4)cc3)c3c(N)ncnc32)C1)CCCCNC(=O)CCCC(=O)NCCCOCCOCCOCCCNC(=O)CCCCC1SCC2NC(=O)NC21 (stereo not drawn) | enzyme activity | inhibitor | TR-FRET | – | 40 µM ATP | IC50 | 4.7 nM
C=CC(=O)Nc1cccc(Cn2ncc3cnc(Nc4cnn(CCOC)c4)nc32)c1 | enzyme activity | inhibitor | FRET | – | – | IC50 | 4.42 nM
CC1=CC(C)=[N+]2C1=Cc1ccc(CCC(=O)NCCCN(C)CCCC(=O)N3CCC[C@@H](n4nc(-c5ccc(Oc6ccccc6)cc5)c5c(N)ncnc54)C3)n1[B-]2(F)F | binding | – | TR-FRET | – | – | Kd | 155 nM
COc1ccc(Nc2nc(Nc3ccc(OC)c(OC)c3)c3[nH]cnc3n2)cc1OC | binding | – | ITC | – | – | Kd | 1000 nM
CN(C(=O)c1ccn2ncc(-c3ccc(C(N)=O)cc3)c2c1)c1ccc(C#N)cn1 | enzyme activity | inhibitor | – | – | – | IC50 | > 10000 nM
N=C(N)NCCC[C@@H]1NC(=O)[C@H](Cc2c[nH]c3ccccc23)NC(=O)[C@H](CCCNC(=N)N)NC(=O)[C@H](Cc2c[nH]c3ccccc23)NC(=O)[C@H](CCCNC(=N)N)NC(=O)[C@H](Cc2c[nH]c3ccccc23)NC(=O)[C@H](CCCNC(=N)N)NC(=O)[C@H](Cc2c[nH]c3ccccc23)NC(=O)[C@H](CCCNC(=N)N)NC(=O)[C@H](Cc2c[nH]c3ccccc23)NC(=O)[C@H](CCCNC(=N)N)NC(=O)[C@H](Cc2c[nH]c3ccccc23)NC(=O)[C@H](CCCNC(=N)N)NC(=O)[C@H](Cc2c[nH]c3ccccc23)NC1=O | enzyme activity | inhibitor | – | – | – | IC50 | < 250 nM
N#CCC(=O)N1CCC[C@H]1Cn1nc(-c2ccc(Oc3ccccc3)cc2F)c2c(N)ncnc21 | enzyme activity | inhibitor | – | 15 min preincubation | ATP 16 µM | IC50 | 170 ± 50 nM
Nc1ncnc2c1c(-c1ccc(Oc3ccccc3)cc1)nn2C1CCCN(C(=O)C2CC(Br)=NO2)C1 (mixture of isomers) | enzyme activity | inhibitor | – | – | – | IC50 | 17 nM
N=C(N)NCCC[C@@H]1NC(=O)[C@H](Cc2c[nH]c3ccccc23)NC(=O)[C@H](CCCNC(=N)N)NC(=O)[C@H](Cc2c[nH]c3ccccc23)NC(=O)[C@H](CCCNC(=N)N)NC(=O)[C@H](Cc2c[nH]c3ccccc23)NC(=O)[C@H](CCCNC(=N)N)NC(=O)[C@H](Cc2c[nH]c3ccccc23)NC(=O)[C@H](CCCNC(=N)N)NC(=O)[C@H](Cc2c[nH]c3ccccc23)NC(=O)[C@H](CCCNC(=N)N)NC(=O)[C@H](Cc2c[nH]c3ccccc23)NC1=O | enzyme activity | inhibitor | – | – | – | IC50 | < 250 nM

Some of these lines once more:
Compound | effect on | action | method | time | added | quantity | value
CN(C(=O)c1ccn2ncc(-c3ccc(C(N)=O)cc3)c2c1)c1ccc(C#N)cn1 | enzyme activity | inhibitor | – | – | – | IC50 | > 10000 nM
